# Experimental data from different studies.
# Each numbered part is a random draw from the data of one study; scales do not carry over between parts. Substitutions count along the parent as printed.

# Study 1
# Target: RING finger protein unkempt homolog, zinc fingers 1-6, GST-SBP tag (UNK, Homo sapiens, UniProt Q9C0B0, residues 30-357)
# Chain of UniProt Q9C0B0 (30-357, looked up): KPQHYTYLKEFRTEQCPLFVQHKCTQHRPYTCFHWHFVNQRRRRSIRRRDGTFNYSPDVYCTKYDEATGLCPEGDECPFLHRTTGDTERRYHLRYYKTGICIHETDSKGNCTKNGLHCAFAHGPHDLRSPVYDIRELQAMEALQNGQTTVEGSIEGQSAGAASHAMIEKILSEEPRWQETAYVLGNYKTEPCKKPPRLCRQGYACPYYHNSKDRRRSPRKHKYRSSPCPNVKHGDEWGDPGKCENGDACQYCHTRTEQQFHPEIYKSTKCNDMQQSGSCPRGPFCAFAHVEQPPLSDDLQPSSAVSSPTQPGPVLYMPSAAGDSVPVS
# Technique: RNA Bind-n-Seq
# Form: RNA
# Matrix: in vitro
# Concentration: not given
# Notes: RNA with constant flanks, human and mouse sites, ends assumed
# Relative to: input RNA pool
# Direction: higher = stronger binding
# Shared flanks, not repeated: GGGAGUUCUACAGUCCGACGAUC … CAACAGAGGAUUGAGCAUCA
Sequence,bound/input enrichment [ratio]
GACCCAACUCCAACAAUGAGAGAUGUGAACAAAAAAUUUUCAGUAAGGUACUUUUUGAAUUUAGUGCUUGUUGAUGAGGAAGACCGGAGGUACUUCAAACAGCAGGAGAUAAUUUUAUGG,0.365
GCAUGUUCUUAUGGACACUAUGAAGUUGCAGAACUUCUUGUCAAGCAUGGAGCAGUAGUCAAUGUCGCUGACUUGUGGAAGUUCACACCUUUACAUGAAGCUGCAGCAAAAGGAAAAUAU,0.173
UCAAGUAGAUGUUUUUCUGUUAUGUAAGCAAUAAUUUUUCCGUGUCUUAUUGAGUAUGGCUAGCGAUUAUUUAUUACAUGCUAGAUGGGUUCUUUGCAUGUGGGUUCCAUAUAGGUGCAG,0.578
ACAGCCCCGUGGGUGUGUGGGAGGCCGGGCGCUCUGGGGUCUGUCUGUCAGUGCAAUCGUUUAGUGUUUUUUCAGUGGGGCGGGGCGGGAAGCGGGUGGGACCGGGCAGCCAGUUCUCAA,19
UGCUGCUCAGGCUGAGAGCUCAGACAAAACAGCAGCUCUUAGAAUAUAAGUCCAUGAUCGACACAAAUGAAGAAAAAACUCCAGAACAGAUUAUGCAAGAAAAACAGAUCGAAGUUAAAA,0.817
CUGAAUGGCUUGGAAUAUGUACCACAAAGACUGAGAAAUCUUAAUGAAAUUAACAAGCUGCUGGCACACCGGCCCUGGCUGAUCACAAAAGAGCACAUUCAGAAACUUGUCAAAACUGGA,0.216
GAGGACCUGGCCACCUACGAGCAGAAACUCCGUGAGUGGCACCUGGAGCGGGUGCAGUUGAUCCAGAGGGAGCAGGAACAGAGGGAGAAGGCCAAGCAAGAGUACCAGGCGCUGAGUGCG,0.302
CAGGGCUUAUAUUGUGUGGCUAUCCGUGACUUCAAACAGGCAGCAGAGCUCUUUCUCGACACUGUUUCUACGUUUACAUCGUAUGAGCUCAUGGAUUACAAGACAUUUGUGACUUACACU,0.0928

# Study 2
# Target: TATA-box-binding protein 1 (TBP1, Arabidopsis thaliana, UniProt P28147, residues 1-200, full length assumed)
# Technique: protein-binding microarray
# Form: double-stranded DNA, one strand shown
# Matrix: in vitro
# Concentration: not given
# Notes: k-mer, scored over probes, only values ≥0.25
# Direction: higher = stronger binding
# Target sequence (chain): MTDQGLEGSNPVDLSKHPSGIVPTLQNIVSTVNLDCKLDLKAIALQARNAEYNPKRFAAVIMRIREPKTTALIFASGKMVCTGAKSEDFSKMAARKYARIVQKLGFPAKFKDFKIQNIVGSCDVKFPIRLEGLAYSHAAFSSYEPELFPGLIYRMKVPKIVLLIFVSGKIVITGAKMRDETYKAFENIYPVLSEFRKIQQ
Sequence,E-score
ATATTGC,0.328
AGGATAT,0.273
AATTATG,0.323
AGATTAT,0.252
AATGTTA,0.301
GATATAA,0.43
ACATGTA,0.262
AGTTTAT,0.351
TAATAGA,0.276
ATAATTG,0.364
GTTTTAA,0.374
GTATAAA,0.466
GGTATTA,0.263
GAATAAA,0.395
AATAAAT,0.438
TAAATCA,0.351
ACATAAA,0.273
ATATGAG,0.3

# Study 3
# Target: CCNA1, cyclin fold, Cln2 fusion (human)
# Technique: yeast growth competition, sequencing
# Matrix: yeast
# Notes: weak parent motif
# Relative to: not given
# Direction: higher = stronger binding
# Parent: CDC6 docking peptide (human); TLKGRRLVFDNQL
Change,normalised enrichment score
TLKGSRLVFDNQL [R5S],0.00309
TLKWRRLVFDNQL [G4W],-0.0537
TLYGRRLVFDNQL [K3Y],0.435
TLKGDRLVFDNQL [R5D],-0.0495
THKGRRLVFDNQL [L2H],0.0721
TLKGRRLVFDLQL [N11L],0.0298
TLKGRRLDFDNQL [V8D],0.318
TLKGRRLVGDNQL [F9G],0.151
TLKGRRLVLDNQL [F9L],0.268
TLKGRRLVFDNSL [Q12S],-0.00251
TLAGRRLVFDNQL [K3A],0.0966
TLKGRRLVFDNEL [Q12E],-0.0623
TIKGRRLVFDNQL [L2I],-0.179
TPKGRRLVFDNQL [L2P],0.296
TLKGRRAVFDNQL [L7A],0.119
TLKGRRPVFDNQL [L7P],-0.156
TLKVRRLVFDNQL [G4V],0.0681
TLKGRRHVFDNQL [L7H],0.329
TLKGRRLVFDNQQ [L13Q],0.434
TLKGWRLVFDNQL [R5W],-0.0175
TLSGRRLVFDNQL [K3S],0.312
TLKQRRLVFDNQL [G4Q],0.333
TLKGRRLVFDHQL [N11H],0.155

# Study 4
# Target: Histone acetyltransferase KAT6A, winged helix 1, GST fusion (KAT6A, Homo sapiens, UniProt Q92794, residues 1-85)
# Technique: protein binding microarray
# Form: double-stranded DNA, one strand shown
# Matrix: in vitro
# Concentration: not given
# Notes: 8-mer, flanks averaged, mean of 2 arrays, mostly near background
# Relative to: not given
# Direction: higher = stronger binding
# Target sequence (chain): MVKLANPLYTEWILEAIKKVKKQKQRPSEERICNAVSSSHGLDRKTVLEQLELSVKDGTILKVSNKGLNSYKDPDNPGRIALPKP
Sequence,E-score
CCTGAACA,-0.124
TAAGTATA,-0.0122
TAGCGAAA,0.0144
ATATGTAG,-0.218
ACCGGTTC,0.111
CTTGCCCA,-0.275
CGGCAATA,0.243
CGTTTCGA,-0.0584
AAGCAAGT,-0.128
TATCGGGA,-0.0375
CGATAGCC,0.219
AGGCCGAG,0.0928
CCTCTTTC,-0.21
ATAGCTAG,-0.11
GTAAACGA,0.0617
GGCTGCGA,-0.037
TAGCTATA,-0.0602
CCATCGGA,0.0588
CGATGAGA,-0.106
AAAGCCTC,-0.219
CATAAGTC,-0.105

# Study 5
# Target: Prothrombin, mature alpha-thrombin (F2, Homo sapiens, UniProt P00734)
# Technique: aptamer microarray, sandwich
# Form: DNA with 2'F-ANA
# Matrix: in vitro
# Concentration: 200 nM
# Notes: whole 15-mer aptamer, many near background
# Added: Cy3 exosite-II aptamer, 400 nM
# Direction: higher = stronger binding
# Sequence: GGTTGGTGTGGTTGG
Modification,mean fluorescence intensity [a.u.]
2'F-ANA at 3 5 7 9 11 12 13 14 15,65
2'F-ANA at 3 4 6 7 8 9 11 12 13 14 15,246
2'F-ANA at 1 6 7 9 13 14 15,54.5
2'F-ANA at 3 6 8 9 10 12 15,509
2'F-ANA at 2 3 4 5 6 9 11 12 13 14,48.9
2'F-ANA at 3 7 9 11 12 14 15,642
2'F-ANA at 2 3 4 5 8 10 12 13 15,49.2
2'F-ANA at 2 5 6 9 13 14,45.7
2'F-ANA at 2 3 4 6 7 8 11 12 14,331
2'F-ANA at 1 6 8 9 12 13 14 15,69.1
2'F-ANA at 1 2 3 6 7 11 12 13 14 15,76.7
2'F-ANA at 1 2 3 8 10 11,65.9
2'F-ANA at 1 2 4 8 9,127
2'F-ANA at 6 7 8 10 14 15,112
2'F-ANA at 1 5 6 7 8 9 10 11 13 15,56.1
2'F-ANA at 3 5 8 10 11 13,72.8
2'F-ANA at 1 3 5 6 9 12,141
2'F-ANA at 1 2 3 4 6 8 9 11 12 13 15,185
2'F-ANA at 1 4 5 8 9 12 13 15,64.9
2'F-ANA at 3 4 5 9 12 13 15,115
2'F-ANA at 2 4 7 8 9 10 11 15,84.2
2'F-ANA at 1 2 5 8 9 10 15,53.6
2'F-ANA at 2 3 5 6 7 12 13 14 15,56.8
2'F-ANA at 3 5 7 8 9 11 13,110

# Study 6
# Target: Sal-like protein 4, full length isoform B (SALL4, Homo sapiens, UniProt Q9UJQ4-2, residues 1-616)
# Technique: universal PBM
# Form: double-stranded DNA, one strand shown
# Matrix: in vitro
# Concentration: not given
# Notes: 8-mer, flanks averaged, mean of replicates
# Direction: higher = stronger binding
# Target sequence (chain): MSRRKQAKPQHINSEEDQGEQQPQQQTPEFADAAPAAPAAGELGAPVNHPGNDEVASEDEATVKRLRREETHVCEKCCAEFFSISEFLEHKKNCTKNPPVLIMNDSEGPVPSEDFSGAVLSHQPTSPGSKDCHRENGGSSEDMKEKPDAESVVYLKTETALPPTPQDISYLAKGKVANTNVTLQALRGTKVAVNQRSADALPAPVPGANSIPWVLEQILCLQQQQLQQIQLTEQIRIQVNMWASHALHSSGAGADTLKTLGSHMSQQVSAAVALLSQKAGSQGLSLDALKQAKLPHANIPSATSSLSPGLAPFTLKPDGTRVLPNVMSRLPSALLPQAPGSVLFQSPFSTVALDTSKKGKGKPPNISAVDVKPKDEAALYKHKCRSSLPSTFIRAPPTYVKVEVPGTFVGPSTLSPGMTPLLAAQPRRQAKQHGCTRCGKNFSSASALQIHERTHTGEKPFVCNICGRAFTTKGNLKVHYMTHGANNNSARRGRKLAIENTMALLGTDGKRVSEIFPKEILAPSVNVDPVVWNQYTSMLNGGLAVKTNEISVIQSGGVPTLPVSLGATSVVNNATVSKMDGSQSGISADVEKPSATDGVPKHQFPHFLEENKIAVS
Sequence,E-score
TATTTAAA,0.381
CACCTACA,-0.0802
CATAGCAA,0.0748
ACAATCAT,0.243
CGGGCGAA,-0.155
CCGCTGCC,-0.234
TAGACGAA,0.176
ATAACAGG,0.157
GTAAGTTA,0.161
GTTGACAA,0.148
GACTGGCA,-0.28
CGCCAACA,-0.0549
CTAGTAGA,0.134
CATCTCCA,-0.0532
GGCTAATA,0.171
GACGGAGA,-0.0717
GAAATTTC,-0.0587
AAACAGAG,-0.0371
GAGCAAAA,0.108
CTATGACC,0.089
TCGATCAA,-0.0702
